# Measured values of several laboratories.
# Each line is one published result; not all experiments were run side by side. Numbers after ± are the reported error.
# Organism: Influenza A virus
SMILES,effect on,action,technique,cell line,strain,time,EC50
CNCC12C3CCC4C3C3C(CCC31)C42,viral replication,inhibitor,,,H3N2,,> 100 µM
COc1cc(-c2oc3cc(O[C@@H]4O[C@@H](C)[C@H](O)[C@@H](O)[C@H]4O)cc(O)c3c(=O)c2O[C@@H]2O[C@H](CO)[C@@H](O)[C@H](O)[C@H]2OC(=O)c2cc(O)c(O)c(O)c2)ccc1O,viral replication,,,MDCK,A/Vladivostok/2/09(H1N1),,259.3 ± 0.68 µM
CCOC(=O)C1=C[C@@H](OC(CC)CC)[C@H](NC(C)=O)[C@@H](NCCCCCCCCC(=O)N[C@H](C(=O)N2C[C@@H](O)C[C@H]2C(=O)N[C@@H](C)c2ccc(-c3scnc3C)cc2)C(C)(C)C)C1,viral replication,,,MDCK,H1N1,,> 50 µM
CN(C)C12C3CCC4C3C3C(CCC31)C42,viral replication,,,MDCK,H1N1 A/PR/8/34,,19 µM
CCOC(=O)C1=C[C@@H](OC(CC)CC)[C@H](NC(C)=O)[C@@H](NCCCCCC(=O)Nc2cccc3c2C(=O)N(C2CCC(=O)NC2=O)C3=O)C1 (stereo partly drawn),viral replication,,,MDCK,H1N1,,2.02 ± 0.06 µM
COC1=C(c2ccc(F)cc2)C(=O)OC1(C)OC (stereo not drawn),,,,MDCK,H1N1 A/Weiss/43,72 h,16.2 ± 1.7 µM
COc1c(CNC(=O)c2cc(C3CC3)nn2C)cccc1OC(F)(F)F,viral replication,,,MDCK,A/WSN/33,,0.025 µM
CCOC(=O)C1=C[C@@H](OC(CC)CC)[C@H](NC(C)=O)[C@@H](NCCCCCCCCC(=O)Nc2cccc3c2C(=O)N(C2CCC(=O)NC2=O)C3=O)C1 (stereo partly drawn),viral replication,,,MDCK,H1N1,,1.84 ± 0.23 µM
CC(=N)NC12C3CCC4C3C3C(CCC31)C42,viral replication,,,MDCK,H1N1 A/PR/8/34,,> 100 µM
COc1cccc(CNC(=O)c2cc(C3CC3)nn2C)c1OC,viral replication,,,MDCK,A/WSN/33,,< 1 µM
COc1ccc(C2=C(N3CCC(O)CC3)C(C)(OC)OC2=O)cc1 (stereo not drawn),,,,MDCK,H1N1 A/Weiss/43,72 h,> 100 µM
COc1cc(-c2oc3cc(O[C@@H]4O[C@@H](C)[C@H](O)[C@@H](O)[C@H]4O)cc(O)c3c(=O)c2O[C@@H]2O[C@H](COC(=O)c3cc(O)c(O)c(O)c3)[C@@H](O)[C@H](O)[C@H]2OC(=O)c2cc(O)c(O)c(O)c2)ccc1O,viral replication,,,MDCK,A/Vladivostok/2/09(H1N1),,129.3 ± 0.8 µM
C1CC2C3C4C5CCC4C24CNCC54C13,viral replication,,,,A/Ishikawa/7/82 (H3N2),,> 100 µM
CCOC(=O)C1=C[C@@H](OC(CC)CC)[C@H](NC(C)=O)[C@@H](NCCCCCCCCCC(=O)Nc2cccc3c2C(=O)N(C2CCC(=O)NC2=O)C3=O)C1 (stereo partly drawn),viral replication,,,MDCK,H1N1,,4.13 ± 0.14 µM
Cc1ccc(CNC23CC4CC(CC(C4)C2)C3)s1,viral replication,,plaque reduction,MDCK,A/Udorn/72 wild-type M2,,9.6 µM
COc1cc(-c2oc3cc(O)cc(O)c3c(=O)c2O[C@@H]2O[C@H](CO)[C@@H](O)[C@H](O)[C@H]2OC(=O)c2cc(O)c(O)c(O)c2)ccc1O,viral replication,,,MDCK,A/Vladivostok/2/09(H1N1),,14.9 ± 0.07 µM
C1CCN(CC23C4CCC5C4C4C(CCC42)C53)CC1,viral replication,,,MDCK,H3N2 A/HK/7/87,,> 100 µM
COC1=C(c2ccc(OC)cc2)C(=O)OC1(C)OC (stereo not drawn),,,,MDCK,H1N1 A/Weiss/43,72 h,7.5 ± 0.9 µM
COc1cc(-c2oc3cc(O[C@@H]4O[C@@H](C)[C@H](O)[C@@H](O)[C@H]4O)cc(O)c3c(=O)c2O[C@@H]2O[C@H](CO[C@@H]3O[C@@H](C)[C@H](O)[C@@H](O)[C@H]3O)[C@@H](O)[C@H](OC(C)=O)[C@H]2O)ccc1O,viral replication,,,MDCK,A/Vladivostok/2/09(H1N1),,1.3 ± 0.04 µM
CN(Cc1ccccc1)CC12C3CCC4C3C3C(CCC31)C42,viral replication,,,MDCK,H3N2 A/HK/7/87,,> 100 µM
COc1ccc(CNC23CC4CC(CC(C4)C2)C3)s1,viral replication,,plaque reduction,MDCK,A/Udorn/72 wild-type M2,,6.8 µM

# Some of these lines once more:
SMILES,effect on,action,technique,cell line,strain,time,EC50
CC(=N)NC12C3CCC4C3C3C(CCC31)C42,viral replication,,,MDCK,H1N1 A/PR/8/34,,> 100 µM
COc1cccc(CNC(=O)c2cc(C3CC3)nn2C)c1OC,viral replication,,,MDCK,A/WSN/33,,< 1 µM
COc1ccc(C2=C(N3CCC(O)CC3)C(C)(OC)OC2=O)cc1 (stereo not drawn),,,,MDCK,H1N1 A/Weiss/43,72 h,> 100 µM
